# Published values pooled from the literature.
# Numbered parts are unrelated; each lists some results of a single study. Changes are numbered by the printed parent chain.

# Study 1 — target: CCNA1, cyclin fold, Cln2 fusion (human); technique: yeast growth competition, sequencing; medium: yeast; setting: weak parent motif; reference: not given; reading: higher = stronger binding
# Starting sequence: RB1 docking peptide (human); PKPLKKLRFDIEG
Change,normalised enrichment score
E12C,0.183
G13K,0.535
D10C,0.0889
F9C,0.369
G13M,0.286
L7C,0.311
L7F,0.35
R8V,0.334
I11L,0.668
L7H,0.287
E12F,0.136
L4E,0.429
E12Q,0.243
E12R,-0.0671
K6N,0.306
I11Q,0.176
K2A,0.191
K5R F9L,-0.052
G13A,0.24
D10N,0.402
P1A,0.43
F9G,0.365
P3S,0.662
I11G,0.262
I11R,-0.0314

# Study 2 — technique: DHFR PCA, deep sequencing; medium: yeast; added: (+)-ABA 0.032 µM; reference: wild-type fitted maximum; reading: higher = stronger binding
# Target: ABI1, truncated, D143A, DHFR fusion (Arabidopsis thaliana)
# Setting: methotrexate growth selection, single substitutions
# Starting sequence: PYL1, truncated, DHFR fusion (Arabidopsis thaliana); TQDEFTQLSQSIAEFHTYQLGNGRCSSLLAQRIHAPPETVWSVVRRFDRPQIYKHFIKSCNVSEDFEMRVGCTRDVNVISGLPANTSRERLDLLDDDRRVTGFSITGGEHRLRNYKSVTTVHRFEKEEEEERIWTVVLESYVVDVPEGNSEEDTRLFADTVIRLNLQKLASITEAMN
Change,relative binding score
G23P,-2.42%
N22Y,19.3%
N77I,41.8%
I33L,3.56%
H34Q,28.5%
D144L,-4.7%
T135K,-2.18%
E125T,36.2%
V44P,-3.59%
I133H,21%
L29D,3.4%
E14N,-2.83%
N61E,45.1%
S42D,16.1%

# Study 3 — technique: RNA Bind-n-Seq; form: RNA; medium: in vitro; concentration: 20 nM; setting: 6-mer, flanks averaged, single round; added: 150 mM LiCl; reference: input library; reading: higher = stronger binding
# Target: TAR DNA-binding protein 43, full length, His tag (TARDBP, Homo sapiens, UniProt Q13148, residues 1-414)
Sequence,6-mer enrichment (R)
GACGUU,0.911
AUAUAU,1
GAAUUC,0.918
GCAAAC,0.841
CAAGUC,0.815
GACCAU,0.862
GCUACA,0.861
GGUAUA,1.01
CCGACG,0.849
ACUCCA,0.93
ACUUGA,0.878
ACAAGC,0.834
CUAUCU,0.891
CGGAGG,1.08
AACACU,0.811

# Study 4 — technique: RNA Bind-n-Seq; form: RNA; medium: in vitro; concentration: 365 nM; reference: no-protein control; reading: higher = stronger binding
# Target: RNA binding protein fox-1 homolog 2, RRM domain, GST-SBP tag (RBFOX2, Homo sapiens, UniProt O43251-10, residues 100-194)
# Setting: natural RNA segment, single round, ends assumed
# Constant ends, left off below: GGGAGUUCUACAGUCCGACGAUC … UGGAAUUCUCGGGUGCCAA
Sequence,RBNS enrichment (R)
UGUCUGCCGAGUCGUCUGUGUAAAAGCCUGUGCUUAGUCUUCUCUGGAAAGAACUGAGGCCAGACGAUUUCUGUGUUUGUCUCUUUGGCUUUUGUGUUAUAAGGAGGCAG,2.07
CAGCCAGCUCCCCUGCAUCCCUUACAGCCAACAGCUCCCUUCAGGCUUAGAGCAGGGGGAAUGGCAGGGAUUAAGAGCUCAGCUCAGAGCCAGUUACCAAGAUGGAAUGG,0.409
UAUUUAAUUAGUCAAAUCAAUUUUUAAAUCAUAACUCCUUAAUCUCAUAAGAAGCAAUAAAUGCAUAAAGCAUUAUAUUAAAAUACCAGGGUUACUUAUGUCAUUGACAG,0.498
AAAGCUCCCAGCAUAUUUAGAUAAUAGGGCAGGGGAAGCACCCUCUUUCUUUCUAGACUGGAUUAUGCUCACAUGCUCCCUUGCCCUGACAUUUUUGUAAAUUCUGUGCC,1.04
UGUAUAUGGCUCCACUGUGGCUUGUGACACUUUUAAAAUCAUCCGUAUGUCAGUGUAUCUGGAUACACGAGGAAAAGGAAAGAGUCUCAGAGUGGAACAAAGAGUGGGAA,0.631
CCCCUCUGCCUUCCUCCCCAAUCCUGACUGGCUCCUAGGGAAGGGGAAGGCUCCUGGAGGGCAGCCCUACCUCUCCCAUGCCCUUUGCCCUCCUCCCUCGCCUCCAGUGG,0.585
UUAAGAAUGUUCACUUAUAGGACCAAAAUAUAAAUAAAAACUUUCAAAUAUGUUUGAUUUUAAAUUAGUCUGCUUUGUCCUUUCGUGUUUCUUGAUAUGUUCUUCAUUUU,5.13
CUUCUUCAUGAUGUUGCCCCUAAAUUUUGCACACUAUAUUCUUGUAUAUUAUUUCAAAUAAAUGGAAAAAAAAGUUGCUUAUCUCUGACGUCUACUGAUUGAUUGAUUGA,0.372
UAAAUAAAAUUAUGCUUUGUGGCUAUCCAUCAACAUAAGUAUAAAAAGAAAGAACGCUUCAACCCCCUUCCCCAUUUAGAUUAUUUAUUAACAUAUUUCGAAAGUAAGGU,0.477
AUGUAUAUAGAAUCUCCAUAUUAAAGAAAUAUUCAUAAUCAGAAAGCUUGAAUAUUGUUUUUGCACCAGAGGAGAAGUGAGGAAAUUCGGAGCUAUACGUGUGUGCAGAG,1.11
UGGCUUUCUUUUUGACUGUGCUUGGGAGCAAAGUCAGAUGGGCAGCUGGGUGUGUGUUUAGAGCUCUACGAAUUGUCAAUAACACAUGCUUCUCUGUCCCAGGGGUCCUA,0.4
UUUGACCCCACCCCCAACCCCAAUUGGGUCACGAACAACAGGUUGAGAACUGCUGCUCUAAGGCCUUCUGUAGAAGUCCAUUCCUAUCACAGUAAGGCUGAACUCUGAAA,0.426

# Repeated from above (study 1):
Change,normalised enrichment score
I11Q,0.176
L4E,0.429
L7C,0.311
P1A,0.43
K6N,0.306
